Experimental data pooled from the literature.
Compare with care: the assays were run in different laboratories.
MARK4: MAP/microtubule affinity-regulating kinase 4 (MARK4, Homo sapiens, UniProt Q96L34)
Chain of UniProt Q96L34 (whole entry, looked up): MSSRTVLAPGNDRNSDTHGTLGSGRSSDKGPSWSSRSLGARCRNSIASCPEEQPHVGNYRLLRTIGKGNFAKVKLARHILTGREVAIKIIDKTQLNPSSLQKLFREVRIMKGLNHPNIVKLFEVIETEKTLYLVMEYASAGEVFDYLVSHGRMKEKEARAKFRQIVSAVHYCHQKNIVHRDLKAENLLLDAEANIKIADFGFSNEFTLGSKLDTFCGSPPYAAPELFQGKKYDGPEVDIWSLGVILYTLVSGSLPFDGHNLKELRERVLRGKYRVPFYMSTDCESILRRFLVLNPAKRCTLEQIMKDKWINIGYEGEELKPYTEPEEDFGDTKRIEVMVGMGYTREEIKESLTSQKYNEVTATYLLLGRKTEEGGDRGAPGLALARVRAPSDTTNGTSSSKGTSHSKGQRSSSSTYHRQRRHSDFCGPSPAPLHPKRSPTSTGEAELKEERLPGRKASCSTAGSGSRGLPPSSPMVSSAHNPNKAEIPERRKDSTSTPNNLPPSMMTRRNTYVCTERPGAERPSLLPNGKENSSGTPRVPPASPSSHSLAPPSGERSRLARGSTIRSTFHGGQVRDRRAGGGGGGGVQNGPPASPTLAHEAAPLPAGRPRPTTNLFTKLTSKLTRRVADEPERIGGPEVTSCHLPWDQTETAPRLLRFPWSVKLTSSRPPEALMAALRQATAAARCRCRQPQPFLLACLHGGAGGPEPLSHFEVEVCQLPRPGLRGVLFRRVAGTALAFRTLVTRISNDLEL
Chain of UniProt P49116 (whole entry, looked up): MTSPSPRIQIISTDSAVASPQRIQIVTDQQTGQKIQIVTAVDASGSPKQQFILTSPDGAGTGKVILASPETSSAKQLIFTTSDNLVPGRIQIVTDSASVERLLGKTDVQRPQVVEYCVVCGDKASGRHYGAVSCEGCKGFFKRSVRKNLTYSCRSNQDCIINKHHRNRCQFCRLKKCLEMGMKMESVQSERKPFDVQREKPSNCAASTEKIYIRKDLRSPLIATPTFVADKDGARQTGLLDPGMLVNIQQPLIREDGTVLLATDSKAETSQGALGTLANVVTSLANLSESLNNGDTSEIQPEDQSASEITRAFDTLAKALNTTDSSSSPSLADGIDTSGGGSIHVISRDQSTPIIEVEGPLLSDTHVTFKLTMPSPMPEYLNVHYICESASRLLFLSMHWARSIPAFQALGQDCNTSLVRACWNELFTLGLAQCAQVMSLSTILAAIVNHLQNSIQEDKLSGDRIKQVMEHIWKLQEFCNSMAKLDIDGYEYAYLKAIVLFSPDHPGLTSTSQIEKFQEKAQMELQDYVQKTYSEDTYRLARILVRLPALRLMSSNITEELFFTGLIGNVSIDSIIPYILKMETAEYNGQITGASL

C=CC(=O)N1CCC(COCC(=O)N2CCN(c3nc(-c4cnc(N)nc4C(F)F)nc(N4CCOC[C@@H]4C)n3)CC2)CC1
remaining binding (MARK4; KINOMEscan; 1 µM; relative to: DMSO control): 100%

N#C/C(=C\c1ccc(-c2cc(Cl)ccc2Cl)o1)C(=O)Nc1cccc2ncccc12
viability (OCI-Ly1; 0.1 µM, 120 h): 88%

CNc1ncc2c(/C=C/C(=O)N3CCC(OC)CC3)nn(Cc3cccc(C(F)(F)F)c3)c2n1
remaining activity (MARK4; kinase activity, inhibitor; 1 µM; relative to: untreated control): 101%

C=CC(=O)N1CCC(C(=O)NCC(=O)N2CCN(c3nc(-c4cnc(N)nc4C(F)F)nc(N4CCOCC4)n3)CC2)CC1
remaining binding (MARK4; KINOMEscan; 1 µM): 97%

CN(C)CC#Cc1ccc2[nH]c3c(c2c1)-c1nc(N)ncc1CCC3
remaining activity (MARK4; kinase activity, inhibitor, radiometric; 1 µM, with: ATP at Km): 97%

C1=C/COCc2cc(ccc2OCCN2CCCC2)Nc2nccc(n2)-c2cccc(c2)COC/1
percent of control (MARK4; concentration not given): 100%

CCCCc1oc2ccccc2c1C(=O)c1cc(I)c(OCCN(CC)CC)c(I)c1
Kd (Nuclear receptor subfamily 2 group C member 2, ligand-binding domain (Homo sapiens, UniProt P49116); SPR imaging): 0.0357 nM

O=C(NC1CCC1)c1ccc2nc(-c3cccc(NS(=O)(=O)NCCN4CCCCC4)c3)cn2c1
remaining activity (MARK4; enzyme activity; 10 µM): 91%

CCCCCOc1ccc(/C=C\c2cccc(O)c2C(=O)O)cc1
viability (OCI-Ly1; 1 µM, 120 h): 170%

O=C1NC(=O)/C(=C/c2ccc(-c3ccc(F)cc3O)o2)S1
remaining activity (MARK4; enzyme activity; 10 µM): 63%

CC[C@@H]1[C@H](F)C(=O)N[C@@H]1COc1nccc2cc(C(N)=O)c(OC)cc12
inhibition (MARK4; ATP-site probe binding, ActivX profiling; THP-1 cell lysate; 0.2 mM, Lys2 site): 13.2%

C[C@@H](c1ccc(-n2cnc3c(N)ncnc32)cc1)N1CCc2nn(C)c(Cc3ccccc3)c2C1=O
remaining binding (MARK4; KINOMEscan; 0.1 µM; relative to: DMSO control): 94%

Some of these lines once more:
O=C(NC1CCC1)c1ccc2nc(-c3cccc(NS(=O)(=O)NCCN4CCCCC4)c3)cn2c1
remaining activity (MARK4; enzyme activity; 10 µM): 91%

C1=C/COCc2cc(ccc2OCCN2CCCC2)Nc2nccc(n2)-c2cccc(c2)COC/1
percent of control (MARK4; concentration not given): 100%
